{"data": "Assay results pooled from the literature", "note": "Lines come from different studies, so protocols differ. “And” joins repeats or separate records; there may be more than shown. ± gives the spread as reported."}
{"SMILES": "COc1nc2c(N)[n+]3cnc2n1[C@@H]1O[C@H](COP(=O)([O-])OP(=O)(O)OC[C@H]2O[C@@H]3[C@H](O)[C@@H]2O)[C@@H](O)[C@H]1O", "target": "cADPR receptor", "assay": "Ca2+ release, antagonist", "test system": "permeabilised Jurkat T cells", "setting": "with: cADPR", "IC50": "200 nM"}
{"SMILES": "Oc1cc(I)ccc1-c1nc2c(Cl)cc(Cl)cc2[nH]1", "target": "NF-κB (human)", "assay": "reporter gene, inhibitor", "test system": "HEK293 NF-κB luciferase reporter", "setting": "with: TNFα", "IC50": "3550 ± 920 nM"}
{"SMILES": "COC1CCC(Nc2nc(-c3nccn3C)nc3sc(-c4ccn(C)n4)c(-c4ccccc4)c23)C1 (stereo not shown)", "target": "Ras", "assay": "Ras-GTP complex formation, inhibitor, GTP pull-down", "test system": "PANC-1", "setting": "6 h, with: EGF 15 min", "IC50": "1000 to 3000 nM"}
{"SMILES": "COc1cc(CCC(C)=O)ccc1O", "target": "mAb 6-AT6", "assay": "antibody binding, indirect competitive ELISA", "setting": "with: coating antigen 1-OVA", "IC50": "> 4 µg/mL"}
{"SMILES": "O=C(Cc1ccccc1)Nc1nc2ccccc2n1Cc1ccccc1", "target": "HIF-1α", "assay": "HRE reporter gene, inhibitor", "test system": "MDA-MB-231-Luc", "setting": "48 h, hypoxia 1% O2", "IC50": "~2200 nM and 2200 nM"}
{"SMILES": "Oc1ccc(Cl)cc1-c1nc2c(Cl)cc(Cl)cc2[nH]1", "target": "NF-κB (human)", "assay": "reporter gene, inhibitor", "test system": "HEK293 NF-κB luciferase reporter", "setting": "with: TNFα", "IC50": "10200 ± 3970 nM"}
{"SMILES": "CC(C)c1cnc(-c2cc(Cl)ccc2F)cc1Nc1ccncc1C(=O)NC(CO)CO", "target": "TGF-β receptor type 1 (human)", "assay": "SMAD2 Ser465/467 phosphorylation, inhibitor", "test system": "MDA-MB-231", "setting": "total drug, with: TGF-β", "IC50": "46.1 ± 2.05 nM"}
{"SMILES": "Oc1ccc(Cl)cc1-c1nc2cc(C(F)(F)F)ccc2[nH]1", "target": "NF-κB (human)", "assay": "reporter gene, inhibitor", "test system": "HEK293 NF-κB luciferase reporter", "setting": "with: TNFα", "IC50": "4820 ± 1050 nM"}
{"SMILES": "CCCCC/C=C/C(=O)CCc1ccc(O)c(OC)c1", "target": "mAb 6-AT6", "assay": "antibody binding, indirect competitive ELISA", "setting": "with: coating antigen 5-OVA", "IC50": "2.93 µg/mL"}
{"SMILES": "COCCNc1nc(-c2nccn2C)nc2sc(-c3cccc(OC)c3Cl)c(-c3ccccc3)c12", "target": "Ras", "assay": "Ras-GTP formation, inhibitor, GTP pull-down", "test system": "MIA PaCa-2", "setting": "6 h, with: EGF 15 min", "IC50": "1000 to 3000 nM"}
{"note": "For quick reference, copied from above:"}
{"SMILES": "CCCCC/C=C/C(=O)CCc1ccc(O)c(OC)c1", "target": "mAb 6-AT6", "assay": "antibody binding, indirect competitive ELISA", "setting": "with: coating antigen 5-OVA", "IC50": "2.93 µg/mL"}
